Published values of several laboratories.
Protocols differ between the studies behind these lines. Values joined by “and” are separate records of one study, mostly repeats; a detail may differ.
Coelenterazine h 2-monooxygenase: Coelenterazine h 2-monooxygenase (Renilla reniformis, UniProt P27652)
Sequence of UniProt P27652 (whole entry, looked up): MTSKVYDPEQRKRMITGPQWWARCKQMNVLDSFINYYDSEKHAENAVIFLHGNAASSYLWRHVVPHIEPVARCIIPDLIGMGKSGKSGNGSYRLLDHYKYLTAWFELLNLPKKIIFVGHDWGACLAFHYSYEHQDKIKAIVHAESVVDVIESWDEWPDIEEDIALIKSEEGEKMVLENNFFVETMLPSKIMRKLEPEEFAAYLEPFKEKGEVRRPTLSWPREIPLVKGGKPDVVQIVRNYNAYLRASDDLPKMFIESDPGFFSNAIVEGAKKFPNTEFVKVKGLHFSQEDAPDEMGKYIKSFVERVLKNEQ
USP5: Ubiquitin carboxyl-terminal hydrolase 5 (USP5, Homo sapiens, UniProt P45974)
Sequence of UniProt P45974 (whole entry, looked up): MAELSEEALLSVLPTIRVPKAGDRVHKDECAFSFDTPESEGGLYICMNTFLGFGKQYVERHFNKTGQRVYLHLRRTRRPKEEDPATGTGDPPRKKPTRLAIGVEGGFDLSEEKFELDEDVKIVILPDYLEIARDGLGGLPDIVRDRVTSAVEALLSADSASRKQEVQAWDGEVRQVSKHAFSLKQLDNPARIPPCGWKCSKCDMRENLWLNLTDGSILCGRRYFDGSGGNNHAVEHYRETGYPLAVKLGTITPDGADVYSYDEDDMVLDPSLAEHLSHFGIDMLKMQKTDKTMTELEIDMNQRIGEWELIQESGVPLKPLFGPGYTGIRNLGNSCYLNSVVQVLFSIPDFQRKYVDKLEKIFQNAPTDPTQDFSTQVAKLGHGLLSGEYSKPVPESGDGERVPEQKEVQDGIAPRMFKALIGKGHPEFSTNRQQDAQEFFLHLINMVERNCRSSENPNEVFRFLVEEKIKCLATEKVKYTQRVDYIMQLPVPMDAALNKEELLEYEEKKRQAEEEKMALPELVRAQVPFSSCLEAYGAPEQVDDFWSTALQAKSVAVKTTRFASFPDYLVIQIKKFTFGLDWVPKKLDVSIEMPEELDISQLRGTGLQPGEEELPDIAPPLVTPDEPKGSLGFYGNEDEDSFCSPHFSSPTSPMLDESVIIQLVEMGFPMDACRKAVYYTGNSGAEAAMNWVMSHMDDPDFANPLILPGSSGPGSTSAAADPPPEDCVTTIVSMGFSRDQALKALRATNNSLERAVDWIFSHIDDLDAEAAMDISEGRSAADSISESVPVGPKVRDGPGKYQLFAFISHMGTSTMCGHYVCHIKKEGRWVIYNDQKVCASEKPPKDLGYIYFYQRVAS
PTGS2: Prostaglandin G/H synthase 2 (PTGS2, Homo sapiens, UniProt P35354)
Sequence of UniProt P35354 (whole entry, looked up): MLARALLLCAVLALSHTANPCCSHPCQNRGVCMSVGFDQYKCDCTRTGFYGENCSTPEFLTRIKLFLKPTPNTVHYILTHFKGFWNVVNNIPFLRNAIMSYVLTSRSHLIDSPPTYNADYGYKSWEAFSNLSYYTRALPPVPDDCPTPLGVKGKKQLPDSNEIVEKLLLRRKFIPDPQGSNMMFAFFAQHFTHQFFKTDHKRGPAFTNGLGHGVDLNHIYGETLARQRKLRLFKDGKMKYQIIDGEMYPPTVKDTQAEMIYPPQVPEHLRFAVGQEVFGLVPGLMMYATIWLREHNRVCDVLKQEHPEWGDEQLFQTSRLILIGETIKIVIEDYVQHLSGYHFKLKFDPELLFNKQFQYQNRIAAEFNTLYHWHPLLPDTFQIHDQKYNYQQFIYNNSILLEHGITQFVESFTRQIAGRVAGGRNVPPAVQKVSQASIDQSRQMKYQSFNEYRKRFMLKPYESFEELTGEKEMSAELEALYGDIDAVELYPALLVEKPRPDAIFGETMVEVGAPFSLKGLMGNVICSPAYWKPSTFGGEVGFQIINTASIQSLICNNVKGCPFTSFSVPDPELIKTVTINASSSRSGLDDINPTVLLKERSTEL
Protein-S-isoprenylcysteine O-methyltransferase: Protein-S-isoprenylcysteine O-methyltransferase (Homo sapiens, UniProt O60725)
Sequence of UniProt O60725 (whole entry, looked up): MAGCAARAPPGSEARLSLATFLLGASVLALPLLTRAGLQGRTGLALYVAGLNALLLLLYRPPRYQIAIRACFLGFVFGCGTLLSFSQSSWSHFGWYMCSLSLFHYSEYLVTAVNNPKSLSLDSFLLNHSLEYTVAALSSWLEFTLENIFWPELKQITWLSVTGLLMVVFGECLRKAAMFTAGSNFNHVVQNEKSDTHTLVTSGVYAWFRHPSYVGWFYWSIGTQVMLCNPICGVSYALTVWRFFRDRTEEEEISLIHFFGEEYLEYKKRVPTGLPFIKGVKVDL
CYSLTR1: Cysteinyl leukotriene receptor 1 (CYSLTR1, Homo sapiens, UniProt Q9Y271)
Sequence of UniProt Q9UM07 (whole entry, looked up): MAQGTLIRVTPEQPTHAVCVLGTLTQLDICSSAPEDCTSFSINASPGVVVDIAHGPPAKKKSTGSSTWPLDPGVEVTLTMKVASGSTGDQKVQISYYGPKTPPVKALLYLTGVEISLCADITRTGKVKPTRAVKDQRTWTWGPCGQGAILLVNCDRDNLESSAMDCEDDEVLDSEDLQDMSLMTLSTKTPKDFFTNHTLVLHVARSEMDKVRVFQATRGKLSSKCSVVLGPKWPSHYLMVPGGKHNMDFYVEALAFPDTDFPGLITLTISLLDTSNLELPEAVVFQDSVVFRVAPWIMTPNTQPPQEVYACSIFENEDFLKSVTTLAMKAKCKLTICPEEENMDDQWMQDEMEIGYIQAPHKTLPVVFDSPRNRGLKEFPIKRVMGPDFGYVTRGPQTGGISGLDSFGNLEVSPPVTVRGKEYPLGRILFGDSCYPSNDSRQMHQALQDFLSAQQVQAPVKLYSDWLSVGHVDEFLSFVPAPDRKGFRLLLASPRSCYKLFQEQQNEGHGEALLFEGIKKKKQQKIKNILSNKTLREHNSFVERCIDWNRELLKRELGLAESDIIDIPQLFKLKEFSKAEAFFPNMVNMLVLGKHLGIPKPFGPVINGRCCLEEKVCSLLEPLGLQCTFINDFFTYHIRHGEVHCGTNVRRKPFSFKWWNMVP
Sequence of UniProt Q02127 (whole entry, looked up): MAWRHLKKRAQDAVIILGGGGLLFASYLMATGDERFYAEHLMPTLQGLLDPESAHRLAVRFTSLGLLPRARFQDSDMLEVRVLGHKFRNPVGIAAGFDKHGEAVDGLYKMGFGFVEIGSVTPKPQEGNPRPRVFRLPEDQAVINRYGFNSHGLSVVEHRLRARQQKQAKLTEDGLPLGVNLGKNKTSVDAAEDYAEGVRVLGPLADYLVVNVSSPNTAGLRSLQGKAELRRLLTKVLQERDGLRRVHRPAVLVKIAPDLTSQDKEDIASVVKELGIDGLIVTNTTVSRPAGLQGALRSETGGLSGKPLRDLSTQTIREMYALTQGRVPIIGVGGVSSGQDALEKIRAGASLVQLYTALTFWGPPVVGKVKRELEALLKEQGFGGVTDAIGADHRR
Sequence of UniProt Q9Y271 (whole entry, looked up): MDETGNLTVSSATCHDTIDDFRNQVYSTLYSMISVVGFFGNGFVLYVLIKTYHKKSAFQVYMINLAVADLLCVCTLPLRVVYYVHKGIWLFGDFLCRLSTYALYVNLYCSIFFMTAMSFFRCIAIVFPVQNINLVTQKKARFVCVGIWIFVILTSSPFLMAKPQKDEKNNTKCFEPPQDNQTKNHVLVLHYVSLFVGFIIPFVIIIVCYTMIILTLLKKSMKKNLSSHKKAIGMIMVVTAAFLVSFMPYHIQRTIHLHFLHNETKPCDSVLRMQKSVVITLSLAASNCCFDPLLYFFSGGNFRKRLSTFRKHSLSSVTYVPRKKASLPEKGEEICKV
Sequence of UniProt P46092 (whole entry, looked up): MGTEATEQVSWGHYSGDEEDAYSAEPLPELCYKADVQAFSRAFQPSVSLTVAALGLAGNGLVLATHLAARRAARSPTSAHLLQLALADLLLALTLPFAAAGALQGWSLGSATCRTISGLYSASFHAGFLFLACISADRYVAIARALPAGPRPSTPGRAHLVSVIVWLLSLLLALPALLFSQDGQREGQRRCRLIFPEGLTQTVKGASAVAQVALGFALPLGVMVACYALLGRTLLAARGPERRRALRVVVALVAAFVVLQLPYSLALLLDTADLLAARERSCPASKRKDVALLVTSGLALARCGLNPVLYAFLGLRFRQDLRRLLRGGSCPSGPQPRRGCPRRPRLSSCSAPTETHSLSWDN
Sequence of UniProt P10275 (whole entry, looked up): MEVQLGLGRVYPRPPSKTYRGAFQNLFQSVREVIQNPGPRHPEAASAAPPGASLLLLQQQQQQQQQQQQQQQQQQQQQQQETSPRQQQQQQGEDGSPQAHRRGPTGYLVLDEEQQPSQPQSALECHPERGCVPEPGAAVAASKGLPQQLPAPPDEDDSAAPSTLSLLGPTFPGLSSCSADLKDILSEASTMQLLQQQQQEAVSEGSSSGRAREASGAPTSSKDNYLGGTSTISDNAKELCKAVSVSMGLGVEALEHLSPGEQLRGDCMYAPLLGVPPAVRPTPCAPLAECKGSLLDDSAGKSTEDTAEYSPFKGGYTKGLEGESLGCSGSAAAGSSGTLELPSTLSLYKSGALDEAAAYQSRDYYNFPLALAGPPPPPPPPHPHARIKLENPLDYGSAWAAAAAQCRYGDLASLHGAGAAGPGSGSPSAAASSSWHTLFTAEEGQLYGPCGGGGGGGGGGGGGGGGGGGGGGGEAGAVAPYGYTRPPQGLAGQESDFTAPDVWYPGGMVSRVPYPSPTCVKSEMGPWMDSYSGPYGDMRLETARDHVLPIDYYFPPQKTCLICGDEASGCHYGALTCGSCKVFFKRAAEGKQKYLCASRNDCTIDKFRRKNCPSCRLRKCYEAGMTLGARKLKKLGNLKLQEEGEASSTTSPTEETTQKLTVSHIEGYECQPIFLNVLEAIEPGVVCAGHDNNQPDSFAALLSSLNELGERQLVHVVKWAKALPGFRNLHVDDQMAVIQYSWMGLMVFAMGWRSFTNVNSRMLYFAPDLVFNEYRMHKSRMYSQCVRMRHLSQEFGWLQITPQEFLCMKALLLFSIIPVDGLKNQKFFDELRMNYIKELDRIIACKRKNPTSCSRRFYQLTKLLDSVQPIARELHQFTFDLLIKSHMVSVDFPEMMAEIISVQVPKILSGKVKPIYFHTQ
Sequence of UniProt P31941 (whole entry, looked up): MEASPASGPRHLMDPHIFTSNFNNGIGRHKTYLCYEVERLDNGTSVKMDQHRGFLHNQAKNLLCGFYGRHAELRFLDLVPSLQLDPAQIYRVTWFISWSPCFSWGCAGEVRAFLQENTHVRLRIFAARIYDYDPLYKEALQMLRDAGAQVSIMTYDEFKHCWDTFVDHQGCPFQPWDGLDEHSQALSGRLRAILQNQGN

| Structure (SMILES) | target | test | test system | setting | inhibition |
| --- | --- | --- | --- | --- | --- |
| Cl.Oc1ccc(Nc2nc(NCC3CCCO3)c3ccccc3n2)cc1 (stereo not drawn) | Coelenterazine h 2-monooxygenase | luciferase activity, inhibitor, luminescence counter-screen |  | concentration not given, test 2 | 105% and 112% |
| CC(=O)N1C(=O)C(=C2SC(=S)N(C(C)C(=O)O)C2=O)c2ccccc21 (stereo not drawn) | USP5 | enzyme activity, inhibitor |  | 17 µM | 7% |
| C[Si](C)(C)C[C@@H](CN)CC(=O)O | alpha2 adrenergic receptor, rat | binding, radioligand binding |  | 75 µM, added: [3H]rauwolscine | 3% |
| CS(=O)(=O)c1ccc(-n2cc(C=NN=c3[nH]c(-c4ccc([N+](=O)[O-])cc4)cs3)c(-c3ccc(Br)cc3)n2)cc1 | PTGS2 | enzyme activity |  | 1 µM | 41.9% |
| COc1cccc(-c2cc(F)c(NC(=O)Nc3sc(C)nc3C(=O)O)c(F)c2)c1 | Dihydroorotate dehydrogenase (quinone), mitochondrial (DHODH, Homo sapiens, UniProt Q02127) | enzyme activity, DCIP colorimetric |  | 10.00 µM | 38.2% and 43.3% and 38.1% |
| Nc1ccc(N2CCOCC2)c2nonc12 | USP5 | enzyme activity, inhibitor |  | 17 µM | 94% |
| C[Si]1(C[C@H](CN)CC(=O)O)CCCC1 | Substance-P receptor (TACR1, Homo sapiens, UniProt P25103) | ligand displacement, radioligand |  | 70 µM | 21% |
| O=C1c2sc(-c3ccc(N4CCC(CO)CC4)nc3F)nc2CCN1c1cccnc1 | Gastrin/cholecystokinin type B receptor (CCKBR, Homo sapiens, UniProt P32239) | ligand displacement, radioligand |  | 1 µM | 12% |
| CC(=O)C12NC(C)(C)CC1(C)C(=O)C1=C2c2c(c3c4n2C(C)(C)CC2=C4C4(CC(C)(C)NC(C)(C4)C2=O)CC3(C)C)C(=O)C(C)(C)N1 (single isomer, unassigned; (-)) | Transient receptor potential cation channel subfamily V member 3 (TRPV3, Homo sapiens, UniProt Q8NET8) | ion current, inhibitor, patch clamp | HEK-293T | 50 µM | 0.22% |
| O=C1NC(=Cc2ccc(O)cc2)C(=O)c2ccccc21 | USP5 | enzyme activity, inhibitor |  | 17 µM | 95% |
| CC=C(C)C(=O)OC1CC2C(C=C(C)C3C(OC(C)=O)CC(=O)C13C)OC(=O)C2C (stereo not drawn) | PTGS2 | enzyme activity, inhibitor |  | 0.98 µg/mL | 0% |
| COc1ncc2nc(C)n(Cc3ncc(S(N)(=O)=O)cc3F)c2c1-c1ccccc1 | Androgen receptor (AR, Homo sapiens, UniProt P10275) | antagonist, cell-based |  | 10 µM | 1.17% |
| CN(C)c1c(C(C#N)=C(C#N)C#N)c2ccccc2n1C | USP5 | enzyme activity, inhibitor |  | 17 µM | 45% |
| CCCCCCCCN(CCC(=O)Nc1ccccc1)C(=O)c1ccc(NC(C)=O)cc1 | Protein-S-isoprenylcysteine O-methyltransferase | enzyme activity | Sf9 membranes | 50 µM, added: [3H]S-adenosylmethionine, biotin-farnesyl-L-cysteine | 10% |
| CO[C@@H]1OC[C@@H](O)[C@H](O)[C@H]1O | PTGS2 | enzyme activity, inhibitor |  | 31.25 µg/mL | 93.2% |
| CN1C=C/C(=C\c2cc[n+](C)c3ccccc23)c2ccccc21 | Coelenterazine h 2-monooxygenase | luciferase activity, inhibitor, luminescence counter-screen |  | concentration not given, test 3 new dilution | 97.5% and 79.1% |
| C/C=C(/C)C(=O)O[C@@H]1C=C(C)CC[C@]2(O)[C@@H](C(C)C)CC(=O)[C@]12C | PTGS2 | enzyme activity, inhibitor |  | 0.98 µg/mL | 0% |
| Cn1ccc2cc(-n3c(=O)[nH]c4sc5c(c4c3=O)CCCC5)ccc21 | CYSLTR1 | ligand displacement |  | 10 µM | 3% |

| Structure (SMILES) | target | test | test system | setting | inhibition |
| --- | --- | --- | --- | --- | --- |
| CCCCCCCCN(CCC(=O)Nc1ccccc1)C(=O)c1ncc[nH]1 | Protein-S-isoprenylcysteine O-methyltransferase | enzyme activity | Sf9 membranes | 50 µM, added: [3H]S-adenosylmethionine, biotin-farnesyl-L-cysteine | 34% |
| O=C1CO[C@H](CNC(=O)C2(c3ccc(Cl)cc3)CC2)CN1C1Cc2ccccc2C1 | C-C chemokine receptor type 10 (CCR10, Homo sapiens, UniProt P46092) | β-arrestin recruitment, antagonist |  | 1 µM | -4% |
| Cc1ccc2c(c1)sc(-c1ccc(N(C)C)cc1)[n+]2C.[I-] | Coelenterazine h 2-monooxygenase | luciferase activity, inhibitor, luminescence counter-screen |  | concentration not given, test 3 new dilution | 89.2% and 91.2% |
| CS(=O)(=O)c1ccc(-n2cc(C=NN=c3[nH]c(-c4ccc(Br)cc4)cs3)c(-c3ccc(Br)cc3)n2)cc1 | PTGS2 | enzyme activity |  | 0.01 µM | 17.7% |
| CCOC(=O)c1c(C)oc2c1C(=CNCCO)C(=O)c1ccccc1-2 | USP5 | enzyme activity, inhibitor |  | 17 µM | 57% |
| Cc1ccc(-c2nn(-c3ccc(S(C)(=O)=O)cc3)cc2C=NN=c2[nH]c(-c3ccc(Br)cc3)cs2)cc1 (mixture of isomers) | PTGS2 | enzyme activity |  | 100 µM | 90.5% |
| Br.CCCCCCCCCn1c2c(c(=N)c3c1CCC3)CCCC2 | Coelenterazine h 2-monooxygenase | luciferase activity, inhibitor, luminescence counter-screen |  | concentration not given, test 2 | 101% and 83.1% |
| O=C1c2sc(-c3ccc(N4CCC(F)C4)nc3F)nc2CCN1c1cccnc1 (stereo not drawn) | Histamine H1 receptor (HRH1, Homo sapiens, UniProt P35367) | ligand displacement, radioligand |  | 1 µM | 2% |
| Cc1[nH]nc2c1N=C(c1ccccc1Cl)c1cnc(N3CCOCC3)cc1N2 | CYSLTR1 | cell-free assay |  | 10 µM | 17% |
| O=C1Nc2ccccc2/C1=N/N=C1\C(=O)Nc2ccccc21 | USP5 | enzyme activity, inhibitor |  | 17 µM | 87% |
| Cl.Cl.N[C@@H](C(=O)N1CCCC1)C1CCN(c2nccc3c(-c4ncc(Cl)cc4Cl)cccc23)CC1 | Protein-arginine deiminase type-4 (PADI4, Homo sapiens, UniProt Q9UM07) | enzyme activity, inhibitor |  | 1.22 nM, added: Ca2+ 0.4 mM | 5.75% and 1.5% and 3.73% |
| CC(C)Cc1ccc(-c2nn(-c3ccc(S(C)(=O)=O)cc3)cc2C=NN=c2[nH]c(-c3ccc(Br)cc3)cs2)cc1 | PTGS2 | enzyme activity |  | 1 µM | 64.2% |
| CN(C)C/C=C/C(=O)Nc1ccc2nc(NCCCCCN(C)C)nc(NCCCCCCN(C)C)c2c1 | Histone-lysine N-methyltransferase SUV39H2 (SUV39H2, Homo sapiens, UniProt Q9H5I1) | enzyme activity, inhibitor, radiometric |  | 10 µM | 5% |
| CSC1=NSC2=NC(=O)C(=Cc3ccc(O)c(O)c3)C(=N)N12 | USP5 | enzyme activity, inhibitor |  | 17 µM | 6% |
| O=C(O)c1cc(-c2ccc(CN3CCCC(CO)C3)o2)ccc1Cl (stereo not drawn) | DNA dC->dU-editing enzyme APOBEC-3A (Homo sapiens, UniProt P31941) | deaminase activity, inhibitor |  | concentration not given | no inhibition |
| CCCCCCCCN(CCC(=O)Nc1ccccc1)C(=O)c1ccccc1OC | Protein-S-isoprenylcysteine O-methyltransferase | enzyme activity | Sf9 membranes | 50 µM, added: [3H]S-adenosylmethionine, biotin-farnesyl-L-cysteine | 32% |
| Nc1nnc2c(n1)-c1ccccc1C2=O | USP5 | enzyme activity, inhibitor |  | 17 µM | 62% |
| C/C=C/C(=O)Nc1ccc2nc(NCCCCCN(C)C)nc(NCCCCCCN(C)C)c2c1 | Protein arginine N-methyltransferase 3 (PRMT3, Homo sapiens, UniProt O60678) | enzyme activity, inhibitor, radiometric |  | 10 µM | 34% |

For quick reference, copied from above:
| Structure (SMILES) | target | test | test system | setting | inhibition |
| --- | --- | --- | --- | --- | --- |
| O=C1Nc2ccccc2/C1=N/N=C1\C(=O)Nc2ccccc21 | USP5 | enzyme activity, inhibitor |  | 17 µM | 87% |
| Cl.Cl.N[C@@H](C(=O)N1CCCC1)C1CCN(c2nccc3c(-c4ncc(Cl)cc4Cl)cccc23)CC1 | Protein-arginine deiminase type-4 (PADI4, Homo sapiens, UniProt Q9UM07) | enzyme activity, inhibitor |  | 1.22 nM, added: Ca2+ 0.4 mM | 5.75% and 1.5% and 3.73% |
